Experimental data pooled from the literature.
Protocols differ between the studies behind these lines. ± marks the error that the study gave.

| Molecule | cell line | assay | setting | scale | quantity | result |
| --- | --- | --- | --- | --- | --- | --- |
| fluorouracil | HCT-116 | cell viability, MTS | – | – | IC50 | 3.62 ± 1.22 µM |
| C1CCC2(C1)OOCOCOOC1(CCCC1)OO2 | HEK293 | cytotoxicity, 7-AAD flow cytometry | – | – | IC50 | 18.3 ± 0.31 µM |
| CC[C@H](C)[C@H](NC(=O)[C@H](CO)NC(=O)[C@@H]1CCCN1C(=O)[C@H](CO)NC(=O)[C@@H](N)CCSC)C(=O)N[C@@H](CC(C)C)C(=O)N[C@@H](CCCCN)C(=O)N[C@@H](Cc1c[nH]cn1)C(=O)N[C@@H](Cc1c[nH]c2ccccc12)C(=O)N[C@@H](CO)C(=O)N[C@@H](CCCNC(=N)N)C(=O)N[C@@H](CCC(N)=O)C(=O)NCC(=O)NCC(=O)NCC(=O)N[C@@H](CCCCN)C(=O)N[C@@H](CCCCN)C(=O)N[C@@H](CC(C)C)C(=O)N[C@@H](CC(C)C)C(=O)NCC(=O)N[C@@H](CC(C)C)C(=O)N[C@@H](CC(C)C)C(=O)N[C@@H](CC(C)C)C(=O)N[C@@H](CCCCN)C(=O)N[C@@H](CC(C)C)C(=O)N[C@@H](CCCCN)C(=O)N[C@@H](CC(C)C)C(=O)N[C@@H](CCCCN)C(=O)O | HEK293T | – | – | reference: CT10 over MIC | selectivity index | 16 |
| C(CCCCCN1COOC2(CCCCCC2)OOC2(CCCCCC2)OOC1)CCCCN1COOC2(CCCCCC2)OOC2(CCCCCC2)OOC1 | Jurkat | annexin V/7-AAD | 3.0 µM, 24 h | – | late apoptotic cells | 53.7% |
| Cc1ccc2[nH]c(CNCCC[C@H]3CCOC3)cc(=O)c2c1 | cells expressing human DRD4 | arrestin over Gαi/o signalling | – | reference: quinpirole | bias factor | 7.8 fold |
| CCOc1ccc(Cc2nc3cc(C(=O)N(CC)CC)ccc3n2CCC(C)C)cc1 | N9 | Western blot, item: IL-1β and iNOS | 1, 2.5 and 5 µM, 24 h, together with: LPS 100 ng/mL | – | M1 marker levels | decreased |
| CC1CCC2(CC1)OOCOCOOC1(CCC(C)CC1)OO2 (stereo not drawn) | U-937 | cytotoxicity, 7-AAD flow cytometry | – | – | IC50 | 7.41 ± 0.11 µM |
| Cc1ccc(-c2csc(N(CC3OC(n4c[n+](Cc5ccccc5)c5c(=O)[nH]c(NC(=O)c6ccccc6)nc54)C4OC(C)(C)OC34)P(=O)([O-])O)n2)cc1 (stereo not drawn) | Vero | cell growth, SRB | – | – | IC50 | > 100 µM |
| CC[C@H](C)[C@H](NC(=O)[C@H](CO)NC(=O)[C@@H]1CCCN1C(=O)[C@H](CO)NC(=O)[C@@H](N)CCSC)C(=O)N[C@@H](CC(C)C)C(=O)N[C@@H](CCCCN)C(=O)N[C@@H](Cc1c[nH]cn1)C(=O)N[C@@H](Cc1c[nH]c2ccccc12)C(=O)N[C@@H](CO)C(=O)N[C@@H](CCCNC(=N)N)C(=O)N[C@@H](CCC(N)=O)C(=O)NCC(=O)NCC(=O)NCC(=O)N[C@@H](CCCCN)C(=O)N[C@@H](CC(C)C)C(=O)N[C@@H](CCCCN)C(=O)N[C@@H](CCCCN)C(=O)N[C@@H](CC(C)C)C(=O)N[C@@H](CC(C)C)C(=O)N[C@@H](CC(C)C)C(=O)NCC(=O)N[C@@H](CC(C)C)C(=O)N[C@@H](CC(C)C)C(=O)N[C@@H](CC(C)C)C(=O)N[C@@H](CCCCN)C(=O)N[C@@H](CCCCN)C(=O)O | HEK293T | – | – | reference: CT10 over MIC | selectivity index | 32 |
| C1CCCC2(CC1)OOCOCOOC1(CCCCCC1)OO2 | HEK293 | cytotoxicity, 7-AAD flow cytometry | – | – | IC50 | 16.4 ± 0.28 µM |
| Cc1cc(N(CCCl)CCCl)ccc1C=O | ACHN | cell growth, inhibitor, MTT | – | – | IC50 | 6.13 µg/mL |
| O=C(O[C@@H]1[C@@H](O)[C@H](Oc2cc(O)c(C(=O)CCc3ccccc3)c(O)c2)O[C@@H]2COC(=O)c3cc(O)c(O)c(O)c3-c3c(cc(O)c(O)c3O)C(=O)O[C@@H]12)c1cc(O)c(O)c(O)c1 | porcine alveolar macrophages | – | – | reference: CC50 over EC50 | selectivity index | 251 |

For quick reference, copied from above:
| Molecule | cell line | assay | setting | scale | quantity | result |
| --- | --- | --- | --- | --- | --- | --- |
| CC[C@H](C)[C@H](NC(=O)[C@H](CO)NC(=O)[C@@H]1CCCN1C(=O)[C@H](CO)NC(=O)[C@@H](N)CCSC)C(=O)N[C@@H](CC(C)C)C(=O)N[C@@H](CCCCN)C(=O)N[C@@H](Cc1c[nH]cn1)C(=O)N[C@@H](Cc1c[nH]c2ccccc12)C(=O)N[C@@H](CO)C(=O)N[C@@H](CCCNC(=N)N)C(=O)N[C@@H](CCC(N)=O)C(=O)NCC(=O)NCC(=O)NCC(=O)N[C@@H](CCCCN)C(=O)N[C@@H](CC(C)C)C(=O)N[C@@H](CCCCN)C(=O)N[C@@H](CCCCN)C(=O)N[C@@H](CC(C)C)C(=O)N[C@@H](CC(C)C)C(=O)N[C@@H](CC(C)C)C(=O)NCC(=O)N[C@@H](CC(C)C)C(=O)N[C@@H](CC(C)C)C(=O)N[C@@H](CC(C)C)C(=O)N[C@@H](CCCCN)C(=O)N[C@@H](CCCCN)C(=O)O | HEK293T | – | – | reference: CT10 over MIC | selectivity index | 32 |
